Experimental data pooled from the literature.
Compare with care: the assays were run in different laboratories. “And” joins repeats or separate records; there may be more than shown. ± gives the spread as reported.
Nuclear receptor subfamily 2 group C member 2 ligand-binding domain: Nuclear receptor subfamily 2 group C member 2, ligand-binding domain (Homo sapiens, UniProt P49116)
Sequence of UniProt P49116 (whole entry, looked up): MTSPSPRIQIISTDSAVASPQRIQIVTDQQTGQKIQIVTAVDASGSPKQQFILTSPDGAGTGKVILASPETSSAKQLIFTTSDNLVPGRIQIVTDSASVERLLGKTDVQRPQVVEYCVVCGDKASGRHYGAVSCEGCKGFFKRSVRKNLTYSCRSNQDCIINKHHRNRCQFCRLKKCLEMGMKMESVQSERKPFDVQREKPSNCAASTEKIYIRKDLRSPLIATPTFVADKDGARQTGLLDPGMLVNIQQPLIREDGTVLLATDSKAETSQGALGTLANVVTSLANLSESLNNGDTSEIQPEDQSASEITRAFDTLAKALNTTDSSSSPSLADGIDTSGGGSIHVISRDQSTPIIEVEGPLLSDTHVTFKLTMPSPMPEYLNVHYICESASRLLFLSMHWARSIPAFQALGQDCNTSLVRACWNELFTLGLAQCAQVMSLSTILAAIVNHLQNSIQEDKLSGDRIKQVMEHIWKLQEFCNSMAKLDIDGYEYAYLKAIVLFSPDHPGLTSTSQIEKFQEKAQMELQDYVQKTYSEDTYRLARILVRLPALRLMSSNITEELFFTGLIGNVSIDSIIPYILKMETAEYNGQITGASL
Sequence of UniProt Q04206 (whole entry, looked up): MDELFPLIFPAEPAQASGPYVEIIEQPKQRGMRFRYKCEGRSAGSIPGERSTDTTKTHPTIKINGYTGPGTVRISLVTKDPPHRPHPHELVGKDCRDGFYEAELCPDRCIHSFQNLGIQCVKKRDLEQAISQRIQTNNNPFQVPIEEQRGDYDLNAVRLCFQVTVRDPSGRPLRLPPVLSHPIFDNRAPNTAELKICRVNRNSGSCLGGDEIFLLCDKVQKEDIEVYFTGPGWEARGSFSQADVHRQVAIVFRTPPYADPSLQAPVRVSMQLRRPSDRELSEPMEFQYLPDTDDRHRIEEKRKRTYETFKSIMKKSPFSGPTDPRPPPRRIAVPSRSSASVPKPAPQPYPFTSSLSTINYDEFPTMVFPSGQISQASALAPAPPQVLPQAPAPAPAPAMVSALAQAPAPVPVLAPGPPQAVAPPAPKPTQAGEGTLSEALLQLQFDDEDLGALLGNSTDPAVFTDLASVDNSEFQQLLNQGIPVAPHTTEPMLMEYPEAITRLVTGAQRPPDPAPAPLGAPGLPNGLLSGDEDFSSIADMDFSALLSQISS
Sequence of UniProt P61981 (whole entry, looked up): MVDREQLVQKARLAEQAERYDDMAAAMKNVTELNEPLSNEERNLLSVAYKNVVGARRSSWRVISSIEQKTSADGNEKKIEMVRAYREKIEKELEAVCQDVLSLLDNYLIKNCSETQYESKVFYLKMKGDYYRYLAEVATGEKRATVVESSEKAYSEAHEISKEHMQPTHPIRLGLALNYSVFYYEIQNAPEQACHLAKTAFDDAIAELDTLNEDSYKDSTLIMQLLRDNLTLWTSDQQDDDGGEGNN

Under “patients with QTcB increase”, Cc1cc(Nc2ccc(S(F)(F)(F)(F)F)cc2)n2nc(C(C)(F)F)nc2n1 is recorded as 11.1% (Plasmodium falciparum; 12-lead ECG; malaria patients; oral, 250 mg, increase above 30 ms).
CCCC(CCC)C(=O)O gave a viability of 177% (OCI-Ly1; 0.5 µM, 120 h).
COc1cccc2c1C(=O)c1c(O)c3c(c(O)c1C2=O)C[C@@](O)(C(=O)CO)C[C@@H]3O[C@H]1C[C@H](N)[C@H](O)[C@H](C)O1 has an Emax of 93.1% (HC-11; cytotoxicity, WST-1; 72 h, highest tested concentration).
For CCn1cc(-c2cc(Cn3ccoc3=N)cc3c2CCN([C@@H](C)c2cc(OC)ccn2)C3=O)c(C(F)(F)F)n1, the EC50 was 5.97 µM (OVSAHO; cell growth, inhibitor; 120 h).
Under “log2 fold change”, Cc1cc(Nc2ncc(Cl)c(Nc3ccccc3S(=O)(=O)C(C)C)n2)c(OC(C)C)cc1C1CCNCC1 is recorded as -2.01 (CLB-GE; phosphoproteomics LC-MS/MS, measured: RPS6 phosphorylation; 200 nM, 60 min; baseline: untreated).
For Nc1cc(F)ccc1NC(=O)/C=C/c1cnn(C/C=C/c2ccccc2)c1, the viability was 148% (OCI-Ly1; 0.5 µM, 120 h).
COc1ccc2c(c1)NC(=O)CN2c1nc(C)nc2c1CCC2 — result for “lowest effective concentration”: 0.5 nM (HCI-10-Luc2; chemotaxis; together with: human HGF 50 nM).
For CCNC(=O)c1noc(-c2cc(C(C)C)c(O)cc2O)c1-c1ccc(CN2CCOCC2)cc1, “fitted bottom MyBP-C level” read 32.6% (iPSC-derived cardiomyocytes; concentration-response fit; concentration not given; baseline: vehicle).
With Nc1ncnc2c1ncn2[C@@H]1O[C@H](CO)[C@@H](O)[C@H]1O the IFNγ production was 344 a.u. and 549 a.u. and 335 a.u. (activated human T cells; 3.16 µM; higher = more IFNγ).
Cc1ncsc1-c1ccc([C@H](C)NC(=O)[C@H]2C[C@H](O)CN2C(=O)[C@@H](NC(=O)CCCCCCCCCNC(=O)c2ccc3c(c2)[C@H](NC(=O)c2cc(-c4ccc(C(=O)N(C)C)c(O)c4)on2)CC3)C(C)(C)C)cc1 — result for “log2 fold change”: -0.342 (MV4-11; TMT proteomics, measured: SPTY2D1 protein; concentration not given, 2 h; baseline: DMSO).
The XTT absorbance of Cc1cccc(-c2[nH]c(CNc3ccccc3F)nc2-c2ccc3ncnn3c2)n1 is reported as 4.2 E-1 and 6.3 E-1 and 4.4 E-1 (pomalidomide-resistant MM1.S cells; XTT; 0.5 µM; higher = more viable cells).
C#CCCC(=O)SCCNC(=O)CCNC(=O)[C@H](O)C(C)(C)COP(=O)(O)OP(=O)(O)OC[C@H]1O[C@@H](n2cnc3c(N)ncnc32)[C@H](O)[C@@H]1OP(=O)(O)O gave a viability of 86.5% (OCI-Ly1; 0.5 µM, 120 h).
The IC50 of CCC(=O)N1CCC(COCC(=O)N2CCN(c3nc(-c4cnc(N)nc4C(F)F)nc(N4CCOC[C@@H]4C)n3)CC2)CC1 is reported as 0.117 µM (HCC1954; western blot, measured: phospho-S6 Ser235/Ser236; 2 h).
With C[C@@H](O)[C@@H](CO)NC(=O)[C@@H](CCCNC(=N)N)NC(=O)[C@@H]1CCCN1C(=O)[C@@H]1CSSC[C@H](NC(=O)[C@H](Cc2ccccc2)NC(=O)CN2CCN(CC(=O)O)CCN(CC(=O)O)CCN(CC(=O)O)CC2)C(=O)N[C@@H](Cc2ccc(O)cc2)C(=O)N[C@@H](Cc2ccccc2)C(=O)N[C@@H](CCC(N)=O)C(=O)N[C@@H](CC(N)=O)C(=O)N1 [gallium-68 labelled] the radiochemical purity was > 98% (PBS; 4 h, 37 °C).
Cn1cc(-c2ccc(-c3cncc(Cl)c3N3CCC4(CCNC4=O)CC3)cc2)cn1: “log2 fold change” 2 (COLO 205; gene expression, microarray, measured: TNRC18 mRNA; concentration not given, 2 h; baseline: untreated cells).
With CC(=O)c1nn(-c2ccc(Cl)cc2)/c(=N/N=C(\C)c2ccc(NC(=O)c3ccccc3)cc2)s1 the toxicity was 97.1% and 95.6% (HepG2; 1.25 µM).
O=C(CCCCCN1C(=O)c2cccc3cccc(c23)C1=O)NO has a viability of 146% (OCI-Ly1; 0.1 µM, 120 h).
O=C(/C=C/C=C/C=C/C1CCCCC1)NC1=C[C@@](O)(/C=C/C=C/C=C/C(=O)NC2=C(O)CCC2=O)[C@@H]2O[C@@H]2C1=O has a GI50 of 25.9 µM (NCI-H2172; cell growth, CellTiter-Glo; 78 h).
For CS(=O)(=O)Nc1ccc([N+](=O)[O-])cc1Oc1ccccc1, the Kd was 0.968 nM (Nuclear receptor subfamily 2 group C member 2 ligand-binding domain; binding).
CCn1cc(-c2cc(Cn3ccnc3)cc3c2CCN([C@H](c2cc(OC)ccn2)C2CC2)C3=O)c(C(F)(F)F)n1 has an EC50 of > 30 µM (OVSAHO; cell growth, inhibitor; 120 h).
COC1CN(C(=O)c2ccc(C=O)cc2)C1 gave an EC50 of > 1000 µM (YWHAG/RELA, phospho-Ser45 p65 peptide (Homo sapiens, UniProt P61981+Q04206); ternary complex formation, stabilizer, fluorescence anisotropy).
For CCCCCCCCCc1ccc(OCCOCCOCCOCCOCCOCCOCCOCCOCCO)cc1, “fitted bottom MyBP-C level” read 0% (iPSC-derived cardiomyocytes; concentration-response fit; concentration not given; baseline: vehicle).
Oc1cc(O)cc(/C=C/c2ccc(O)c(O)c2)c1 gave a viability of 172% (OCI-Ly1; 0.1 µM, 120 h).
With FC(F)(F)Oc1ccc(CNc2ccc3cc[nH]c3c2)cc1 the viability was 98.2 ± 1.45% (sample A patient iPSC-derived NPCs; MTS; 10 µM, 24 h; baseline: vehicle).
With CCCCc1oc2ccccc2c1C(=O)c1cc(I)c(OCCN(CC)CC)c(I)c1 the Kd was 0.0357 nM (Nuclear receptor subfamily 2 group C member 2 ligand-binding domain; SPR imaging).
The fold change of CCCCc1oc2ccc(NS(C)(=O)=O)cc2c1C(=O)c1ccc(OCCCN(CCCC)CCCC)cc1 is reported as 4.5 fold (human embryonic stem cell aggregates; mRNA level, microarray, measured: TBX6; 0.5 µM, 120 h; baseline: untreated, down-regulated).
With COc1ccccc1S(=O)(=O)Nc1ccc2c(c1)CN(C)C(=O)N2 the viability was 78.6% (OCI-Ly1; 0.5 µM, 120 h).
Cn1c(Nc2nc3ccc(C(F)(F)F)cc3s2)nc2cc(C(=O)NCCOCCO)ccc21 has a fold change of 80.7 (SH-SY5Y; RNA-seq, measured: MALL mRNA; 5 µM, 5 h; baseline: untreated cells).

Some of these lines once more:
The XTT absorbance of Cc1cccc(-c2[nH]c(CNc3ccccc3F)nc2-c2ccc3ncnn3c2)n1 is reported as 4.2 E-1 and 6.3 E-1 and 4.4 E-1 (pomalidomide-resistant MM1.S cells; XTT; 0.5 µM; higher = more viable cells).
C#CCCC(=O)SCCNC(=O)CCNC(=O)[C@H](O)C(C)(C)COP(=O)(O)OP(=O)(O)OC[C@H]1O[C@@H](n2cnc3c(N)ncnc32)[C@H](O)[C@@H]1OP(=O)(O)O gave a viability of 86.5% (OCI-Ly1; 0.5 µM, 120 h).
The IC50 of CCC(=O)N1CCC(COCC(=O)N2CCN(c3nc(-c4cnc(N)nc4C(F)F)nc(N4CCOC[C@@H]4C)n3)CC2)CC1 is reported as 0.117 µM (HCC1954; western blot, measured: phospho-S6 Ser235/Ser236; 2 h).
